# Published values pooled from the literature.
# Parts stem from different laboratories: compare values within a part only. Values joined by “and” are separate records of one study, mostly repeats; a detail may differ.
# UniProt P23975, sequence (whole entry, looked up): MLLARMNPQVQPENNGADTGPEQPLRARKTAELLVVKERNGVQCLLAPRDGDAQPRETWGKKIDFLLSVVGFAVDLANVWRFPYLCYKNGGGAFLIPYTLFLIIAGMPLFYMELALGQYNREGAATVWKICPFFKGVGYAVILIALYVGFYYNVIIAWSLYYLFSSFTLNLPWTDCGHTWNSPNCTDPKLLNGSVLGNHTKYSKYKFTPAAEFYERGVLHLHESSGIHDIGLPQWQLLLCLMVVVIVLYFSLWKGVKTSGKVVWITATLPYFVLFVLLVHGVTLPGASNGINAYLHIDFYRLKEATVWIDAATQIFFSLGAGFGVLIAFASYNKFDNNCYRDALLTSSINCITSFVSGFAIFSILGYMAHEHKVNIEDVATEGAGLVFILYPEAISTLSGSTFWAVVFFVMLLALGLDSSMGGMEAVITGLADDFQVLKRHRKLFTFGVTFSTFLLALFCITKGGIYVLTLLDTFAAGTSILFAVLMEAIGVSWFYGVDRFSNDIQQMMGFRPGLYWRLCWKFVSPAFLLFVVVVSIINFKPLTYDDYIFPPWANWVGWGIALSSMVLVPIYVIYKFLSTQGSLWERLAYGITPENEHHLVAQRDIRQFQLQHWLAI

# Block 1
# SMILES: COc1cc(C(=O)OCCCN2CCCN(CCCOC(=O)c3cc(OC)c(OC)c(OC)c3)CC2)cc(OC)c1OC
# Host: CD-1 mice, male
# Route: subcutaneous
# Dose: 30 mg/kg
sample,time,concentration [ng/mL]
brain,8 h,0.667
brain,0.5 h,124
spinal cord,1.5 h,313
brain,1.5 h,139
spinal cord,0.5 h,230
spinal cord,8 h,0.93
spinal cord,0.1667 h,104
spinal cord,4.5 h,18.2

# Block 2
# SMILES: CCOc1ccc(Nc2c3c(nc4ccccc24)CCC3)cc1
# Organism: Leishmania donovani
effect on,strain,sample,tested at,setting,inhibition
parasite growth,DD8 amphotericin B-resistant,intracellular amastigotes,0.8 µM,,56% and 58% and 61% and 55% and 57% and 48%
,DD8 resistant line,promastigotes,33.33 µM,resistance confirmation,84%
,DD8 resistant line,promastigotes,16.66 µM,resistance confirmation,63%
parasite growth,DD8 amphotericin B-resistant,promastigotes,16.66 µM,,93% and 94% and 88% and 91%
parasite growth,DD8 amphotericin B-resistant,intracellular amastigotes,0.008 µM,,7% and 1% and -7% and 2%
parasite growth,DD8 amphotericin B-resistant,promastigotes,33.33 µM,,100% and 99% and 98%
,DD8 resistant line,promastigotes,6.66 µM,resistance confirmation,34%
parasite growth,,,66.66 µM,promastigote,99%

# Block 3
# Organism: Sarcocystis neurona
# Effect on: parasite growth
# Tested at: 10 µM
# Time: 96 h
# Setting: second screen
# Baseline: untreated
SMILES,log2 fold change
C[C@H]1CCC[C@H](O)CCCCCc2cc(O)cc(O)c2C(=O)O1,0.51
O=c1c(-c2ccccc2)c1-c1ccccc1,-2.77
CN1CCN(CC/C=C2/c3ccccc3Sc3ccc(S(=O)(=O)N(C)C)cc32)CC1,-0.87
c1ccc(Cn2ccnc2)cc1,0.25
Oc1cc(Cl)ccc1Oc1ccc(Cl)cc1Cl,-0.33

# Block 4
# Cell line: HEK-293T
# Effect on: pseudovirus infection
# Technique: FDA-approved drug library counter-screen
# Organism: VSV pseudotyped with VSV-G
# Tested at: 10 µM
# Time: 16 h
# Baseline: vehicle-treated
Compound,GFP-positive cells
C[N+](C)(C)CCCCCCCCCC[N+](C)(C)C,87.8%
Nc1nc(CC(=O)Nc2ccc(CCNC[C@H](O)c3ccccc3)cc2)cs1,116%
Cc1ncc(CO)c(CO)c1O,95.6%
CC12CC3CC(C)(C1)CC(N)(C3)C2,110%
CCN(CC)C(=S)SSC(=S)N(CC)CC,122%
CCN[C@H]1CN(CCCOC)S(=O)(=O)c2sc(S(N)(=O)=O)cc21,112%
Nc1cc(N2CCCCC2)nc(N)[n+]1[O-],118%
CCCCCCOC(=O)N=C(N)c1ccc(NCc2nc3cc(C(=O)N(CCC(=O)OCC)c4ccccn4)ccc3n2C)cc1,83.5%
CCCCOc1cc(C(=O)NCCN(CC)CC)c2ccccc2n1,108%
CCc1nc(N)nc(N)c1-c1ccc(Cl)cc1,97%
N=C(N)NC(=O)c1nc(Cl)c(N)nc1N,107%
CN(C)CCc1c[nH]c2ccc(Cn3cncn3)cc12,109%
NS(=O)(=O)c1cc2c(cc1Cl)N=C(CSCc1ccccc1)NS2(=O)=O,97.5%
Cc1cc(C(C)(C)C)c(O)c(C)c1CC1=NCCN1,113%
COc1c(C)c2c(c(O)c1C/C=C(\C)CCC(=O)OCCN1CCOCC1)C(=O)OC2,0.85%
C=C1[C@H](CO)[C@@H](O)C[C@@H]1n1cnc2c(=O)[nH]c(N)nc21,98.5%
Nc1ncnc2c1ncn2[C@@H]1O[C@H](CO)[C@@H](O)[C@H]1O,94%
O=C1C(O)=C([C@H]2CC[C@H](c3ccc(Cl)cc3)CC2)C(=O)c2ccccc21,2.12%
CCc1c2c(nc3ccc(OC(=O)N4CCC(N5CCCCC5)CC4)cc13)-c1cc3c(c(=O)n1C2)COC(=O)[C@]3(O)CC,102%
C[C@H](CCC(=O)NCCS(=O)(=O)O)[C@H]1CC[C@H]2[C@@H]3[C@@H](O)C[C@@H]4C[C@H](O)CC[C@]4(C)[C@H]3CC[C@]12C,92.4%
CC[C@]1(O)C[C@@H]2CN(CCc3c([nH]c4ccccc34)[C@@](C(=O)OC)(c3cc4c(cc3OC)N(C)[C@H]3[C@@](O)(C(=O)OC)[C@H](OC(C)=O)[C@]5(CC)C=CCN6CC[C@]43[C@@H]65)C2)C1,3.61%
Nc1nc2c(ncn2COCCO)c(=O)[nH]1,95%
CC1=NS(=O)(=O)c2cc(Cl)ccc2N1,113%
O=C1O[C@H](CO)[C@@H](O)[C@H](O)[C@H]1O,76.6%
COc1c(N2C[C@@H]3CCCN[C@@H]3C2)c(F)cc2c(=O)c(C(=O)O)cn(C3CC3)c12,86.5%

# Other studies, line by line
# pknB: Serine/threonine-protein kinase PknB (pknB, Mycobacterium tuberculosis, UniProt P9WI81)
# UniProt P9WI81, sequence (whole entry, looked up): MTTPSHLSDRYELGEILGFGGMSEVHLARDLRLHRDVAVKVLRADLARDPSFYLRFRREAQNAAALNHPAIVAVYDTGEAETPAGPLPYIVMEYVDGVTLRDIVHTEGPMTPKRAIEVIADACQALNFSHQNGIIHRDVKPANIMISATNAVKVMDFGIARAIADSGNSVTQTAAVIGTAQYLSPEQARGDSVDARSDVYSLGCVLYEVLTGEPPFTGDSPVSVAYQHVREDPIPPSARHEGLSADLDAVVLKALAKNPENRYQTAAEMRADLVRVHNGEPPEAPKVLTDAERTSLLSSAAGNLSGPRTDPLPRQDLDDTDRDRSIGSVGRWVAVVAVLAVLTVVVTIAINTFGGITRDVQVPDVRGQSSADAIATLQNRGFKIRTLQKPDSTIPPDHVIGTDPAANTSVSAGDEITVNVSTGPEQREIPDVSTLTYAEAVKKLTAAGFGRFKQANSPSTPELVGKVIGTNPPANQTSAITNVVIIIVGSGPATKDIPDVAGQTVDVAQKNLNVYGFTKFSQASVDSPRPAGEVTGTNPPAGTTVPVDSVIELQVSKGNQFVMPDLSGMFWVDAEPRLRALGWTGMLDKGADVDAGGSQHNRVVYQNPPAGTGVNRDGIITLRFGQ
SMILES,tested on,effect on,technique,tested at,baseline,measurement,value
CN[C@@H]1C[C@H]2O[C@@](C)([C@@H]1OC)n1c3ccccc3c3c4c(c5c6ccccc6n2c5c31)C(=O)NC4,normal-adjacent epithelium patient-derived organoids sample E,,CellTiter-Glo,1 µM,DMSO,viability,0.9%
O=C1NC(c2ccccn2)Sc2ccccc21 (centres unmarked),"Sodium-dependent noradrenaline transporter (SLC6A2, Homo sapiens, UniProt P23975)",ligand displacement,,10 µM,,inhibition,28.7%
CC(=O)C1=C(C)N(c2cccc(C(F)(F)F)c2)C(=O)N[C@@H]1c1ccc(C#N)nc1,pknB,cell-free assay,competition with immobilised ligand,1 µM,,remaining binding,82.7%
CN([C@@H]1CCc2c(CC(=O)O)c3ccccc3n2C1)S(=O)(=O)c1ccc(F)cc1,pknB,cell-free assay,competition with immobilised ligand,1 µM,,remaining binding,100%

# Repeated from above (block 2):
effect on,strain,sample,tested at,setting,inhibition
,DD8 resistant line,promastigotes,16.66 µM,resistance confirmation,63%
,DD8 resistant line,promastigotes,33.33 µM,resistance confirmation,84%
parasite growth,DD8 amphotericin B-resistant,promastigotes,33.33 µM,,100% and 99% and 98%
parasite growth,DD8 amphotericin B-resistant,promastigotes,16.66 µM,,93% and 94% and 88% and 91%
